Experimental data pooled from the literature.
± gives the spread as reported.
FUT6: 4-galactosyl-N-acetylglucosaminide 3-alpha-L-fucosyltransferase FUT6 (FUT6, Homo sapiens, UniProt P51993)
Chain of UniProt P51993 (whole entry, looked up): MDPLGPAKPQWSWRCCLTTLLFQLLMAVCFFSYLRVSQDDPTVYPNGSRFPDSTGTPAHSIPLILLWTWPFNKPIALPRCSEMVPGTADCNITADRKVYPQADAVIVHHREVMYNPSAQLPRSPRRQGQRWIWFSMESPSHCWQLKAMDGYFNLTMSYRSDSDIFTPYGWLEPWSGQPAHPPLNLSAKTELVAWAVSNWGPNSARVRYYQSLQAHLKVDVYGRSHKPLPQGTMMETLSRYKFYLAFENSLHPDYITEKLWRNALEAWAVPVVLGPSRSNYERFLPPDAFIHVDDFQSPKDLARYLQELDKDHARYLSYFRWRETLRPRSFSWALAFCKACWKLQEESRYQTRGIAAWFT
FAP: Prolyl endopeptidase FAP (FAP, Homo sapiens, UniProt Q12884)
Chain of UniProt Q12884 (whole entry, looked up): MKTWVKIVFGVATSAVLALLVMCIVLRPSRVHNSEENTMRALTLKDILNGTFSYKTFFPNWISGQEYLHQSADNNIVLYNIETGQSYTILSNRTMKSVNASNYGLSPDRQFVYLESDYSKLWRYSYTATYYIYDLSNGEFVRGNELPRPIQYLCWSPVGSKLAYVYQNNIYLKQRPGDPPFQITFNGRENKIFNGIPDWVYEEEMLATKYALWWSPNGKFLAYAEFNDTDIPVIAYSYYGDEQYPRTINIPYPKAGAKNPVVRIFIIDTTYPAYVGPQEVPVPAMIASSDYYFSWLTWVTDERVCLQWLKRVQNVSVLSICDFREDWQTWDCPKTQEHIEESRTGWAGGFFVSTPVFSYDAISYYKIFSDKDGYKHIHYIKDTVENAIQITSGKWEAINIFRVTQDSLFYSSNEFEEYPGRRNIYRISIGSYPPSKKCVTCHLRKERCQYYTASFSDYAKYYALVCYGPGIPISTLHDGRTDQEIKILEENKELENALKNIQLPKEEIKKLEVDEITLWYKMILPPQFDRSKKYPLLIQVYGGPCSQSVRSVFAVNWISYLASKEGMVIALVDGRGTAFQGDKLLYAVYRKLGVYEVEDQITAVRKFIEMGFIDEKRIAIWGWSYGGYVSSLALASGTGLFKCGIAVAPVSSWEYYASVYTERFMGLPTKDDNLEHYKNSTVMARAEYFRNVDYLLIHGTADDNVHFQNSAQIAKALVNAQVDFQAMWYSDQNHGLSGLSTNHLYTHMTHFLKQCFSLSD
Hypoxanthine-guanine-xanthine phosphoribosyltransferase: Hypoxanthine-guanine-xanthine phosphoribosyltransferase (Plasmodium falciparum, UniProt P20035)
Chain of UniProt P20035 (whole entry, looked up): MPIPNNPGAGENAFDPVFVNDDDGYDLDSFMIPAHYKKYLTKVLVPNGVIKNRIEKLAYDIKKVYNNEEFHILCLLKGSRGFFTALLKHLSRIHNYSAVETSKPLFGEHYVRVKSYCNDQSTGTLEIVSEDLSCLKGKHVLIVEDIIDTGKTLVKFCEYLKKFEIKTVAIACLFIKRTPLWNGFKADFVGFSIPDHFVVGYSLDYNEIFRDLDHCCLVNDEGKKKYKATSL
Beta-lactamase CTX-M-14: Beta-lactamase CTX-M-14 (Escherichia coli, UniProt Q9L5C7)
TACR1: Substance-P receptor (TACR1, Homo sapiens, UniProt P25103)
Chain of UniProt P25103 (whole entry, looked up): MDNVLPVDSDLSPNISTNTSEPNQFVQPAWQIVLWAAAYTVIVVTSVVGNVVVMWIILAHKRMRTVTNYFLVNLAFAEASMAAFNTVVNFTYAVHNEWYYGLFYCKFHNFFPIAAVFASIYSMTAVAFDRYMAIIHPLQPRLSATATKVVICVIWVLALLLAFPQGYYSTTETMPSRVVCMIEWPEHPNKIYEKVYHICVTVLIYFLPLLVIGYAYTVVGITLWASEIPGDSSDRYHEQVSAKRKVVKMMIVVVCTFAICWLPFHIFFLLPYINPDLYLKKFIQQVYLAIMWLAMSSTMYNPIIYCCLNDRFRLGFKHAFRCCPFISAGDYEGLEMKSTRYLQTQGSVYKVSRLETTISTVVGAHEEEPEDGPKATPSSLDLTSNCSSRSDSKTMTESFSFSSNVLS
MAPK8: Mitogen-activated protein kinase 8 (MAPK8, Homo sapiens, UniProt P45983)
Chain of UniProt P45983 (whole entry, looked up): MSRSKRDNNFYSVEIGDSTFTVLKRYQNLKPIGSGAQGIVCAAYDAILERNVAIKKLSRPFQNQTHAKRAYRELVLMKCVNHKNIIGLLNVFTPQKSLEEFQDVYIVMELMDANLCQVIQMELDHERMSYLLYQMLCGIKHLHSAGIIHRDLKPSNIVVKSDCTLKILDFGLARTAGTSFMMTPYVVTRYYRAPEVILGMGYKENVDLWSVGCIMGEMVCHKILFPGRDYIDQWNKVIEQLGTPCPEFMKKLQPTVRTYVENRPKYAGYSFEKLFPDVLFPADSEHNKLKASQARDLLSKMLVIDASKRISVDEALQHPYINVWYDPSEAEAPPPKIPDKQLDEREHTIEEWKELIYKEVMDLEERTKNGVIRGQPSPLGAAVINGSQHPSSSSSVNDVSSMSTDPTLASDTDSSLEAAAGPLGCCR
CHRM4: Muscarinic acetylcholine receptor M4 (CHRM4, Homo sapiens, UniProt P08173)
Chain of UniProt P08173 (whole entry, looked up): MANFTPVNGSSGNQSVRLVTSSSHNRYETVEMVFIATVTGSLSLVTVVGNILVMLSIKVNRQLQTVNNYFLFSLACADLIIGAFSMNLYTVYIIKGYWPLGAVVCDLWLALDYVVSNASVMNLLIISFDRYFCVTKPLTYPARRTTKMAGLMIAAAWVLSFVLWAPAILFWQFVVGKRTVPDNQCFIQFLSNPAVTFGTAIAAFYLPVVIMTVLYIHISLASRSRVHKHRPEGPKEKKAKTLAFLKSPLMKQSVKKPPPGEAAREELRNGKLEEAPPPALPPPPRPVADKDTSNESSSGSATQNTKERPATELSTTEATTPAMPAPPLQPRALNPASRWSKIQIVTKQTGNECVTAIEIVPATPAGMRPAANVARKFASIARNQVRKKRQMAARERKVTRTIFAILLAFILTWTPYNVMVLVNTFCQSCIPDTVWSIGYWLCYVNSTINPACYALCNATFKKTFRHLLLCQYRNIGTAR
Htr1a: 5-hydroxytryptamine receptor 1A (Htr1a, Rattus norvegicus, UniProt P19327)
Chain of UniProt P19327 (whole entry, looked up): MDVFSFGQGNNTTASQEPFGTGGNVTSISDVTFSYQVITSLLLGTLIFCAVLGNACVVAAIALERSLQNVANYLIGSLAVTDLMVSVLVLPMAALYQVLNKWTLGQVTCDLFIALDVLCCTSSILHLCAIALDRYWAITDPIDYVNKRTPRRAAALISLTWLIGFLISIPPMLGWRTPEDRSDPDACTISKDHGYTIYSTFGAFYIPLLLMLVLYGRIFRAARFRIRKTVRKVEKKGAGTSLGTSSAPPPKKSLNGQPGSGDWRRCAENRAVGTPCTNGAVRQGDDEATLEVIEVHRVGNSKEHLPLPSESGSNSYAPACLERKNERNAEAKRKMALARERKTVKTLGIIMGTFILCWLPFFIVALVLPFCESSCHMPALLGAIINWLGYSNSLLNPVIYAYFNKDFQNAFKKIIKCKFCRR
5-hydroxytryptamine receptor 2A: 5-hydroxytryptamine receptor 2A (Rattus norvegicus, UniProt P14842)
Chain of UniProt P14842 (whole entry, looked up): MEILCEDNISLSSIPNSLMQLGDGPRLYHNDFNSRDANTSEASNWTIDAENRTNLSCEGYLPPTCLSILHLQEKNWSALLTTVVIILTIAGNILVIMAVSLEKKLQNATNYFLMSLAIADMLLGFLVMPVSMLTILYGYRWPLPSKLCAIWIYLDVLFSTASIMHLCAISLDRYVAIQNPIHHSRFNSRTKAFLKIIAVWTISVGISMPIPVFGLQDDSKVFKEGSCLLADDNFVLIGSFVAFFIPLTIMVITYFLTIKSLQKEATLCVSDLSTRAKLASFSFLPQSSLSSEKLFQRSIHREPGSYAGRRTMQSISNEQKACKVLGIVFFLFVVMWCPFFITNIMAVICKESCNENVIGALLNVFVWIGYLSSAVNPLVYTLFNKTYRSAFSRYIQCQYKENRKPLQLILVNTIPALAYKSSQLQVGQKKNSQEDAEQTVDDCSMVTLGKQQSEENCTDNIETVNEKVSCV
CASP1: Caspase-1 (CASP1, Homo sapiens, UniProt P29466)
Chain of UniProt P29466 (whole entry, looked up): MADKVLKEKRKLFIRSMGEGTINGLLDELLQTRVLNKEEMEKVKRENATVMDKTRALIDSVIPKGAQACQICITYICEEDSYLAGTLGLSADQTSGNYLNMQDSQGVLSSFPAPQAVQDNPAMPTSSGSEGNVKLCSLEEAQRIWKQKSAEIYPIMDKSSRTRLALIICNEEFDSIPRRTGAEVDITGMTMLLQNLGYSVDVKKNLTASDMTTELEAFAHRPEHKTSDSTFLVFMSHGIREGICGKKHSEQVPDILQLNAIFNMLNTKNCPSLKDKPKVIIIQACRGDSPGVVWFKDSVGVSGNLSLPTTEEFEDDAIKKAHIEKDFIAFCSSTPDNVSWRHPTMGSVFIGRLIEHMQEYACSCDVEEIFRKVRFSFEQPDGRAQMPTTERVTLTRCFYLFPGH
Chain of UniProt Q9NR56 (whole entry, looked up): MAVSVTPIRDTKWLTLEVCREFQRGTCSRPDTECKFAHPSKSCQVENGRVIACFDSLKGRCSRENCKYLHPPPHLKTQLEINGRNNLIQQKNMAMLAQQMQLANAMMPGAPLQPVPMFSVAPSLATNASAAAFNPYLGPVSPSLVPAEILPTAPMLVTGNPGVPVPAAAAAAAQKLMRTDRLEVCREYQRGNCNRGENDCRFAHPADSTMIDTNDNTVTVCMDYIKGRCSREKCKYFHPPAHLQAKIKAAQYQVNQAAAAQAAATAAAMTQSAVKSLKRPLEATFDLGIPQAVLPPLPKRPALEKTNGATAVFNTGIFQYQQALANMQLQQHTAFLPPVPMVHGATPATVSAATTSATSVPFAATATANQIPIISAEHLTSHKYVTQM
Chain of UniProt P32245 (whole entry, looked up): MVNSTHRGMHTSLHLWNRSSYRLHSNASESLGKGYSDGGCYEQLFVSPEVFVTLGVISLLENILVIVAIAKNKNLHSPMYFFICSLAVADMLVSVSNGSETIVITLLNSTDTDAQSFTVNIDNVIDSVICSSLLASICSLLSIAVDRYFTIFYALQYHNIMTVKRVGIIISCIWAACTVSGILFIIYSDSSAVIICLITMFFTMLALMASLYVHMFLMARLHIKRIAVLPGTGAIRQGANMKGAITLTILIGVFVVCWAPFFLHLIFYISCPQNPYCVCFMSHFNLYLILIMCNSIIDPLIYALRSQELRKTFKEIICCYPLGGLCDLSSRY

Nc1nc2c(ncn2[C@@H]2O[C@H](COP(=O)(O)OP(=O)(O)O[C@H]3O[C@@H](CNC(=O)C(c4ccccc4)C4CCCCC4)[C@@H](O)[C@@H](O)[C@@H]3F)[C@@H](O)[C@H]2O)c(=O)[nH]1 (stereo partly drawn)
Ki (FUT6; enzyme activity, inhibitor): 3400 nM

CC(=O)N[C@@H](CCCNC(=N)N)C(=O)NCCOCCOCC(=O)N[C@H](C)C(=O)N1CCC[C@H]1B(O)O
Ki (FAP; inhibitor, fluorogenic substrate; with: Tic-Pro-AFC): ~5 nM

Nc1nc2c(CNCCCP(=O)(O)O)c[nH]c2c(=O)[nH]1
Ki (Hypoxanthine-guanine-xanthine phosphoribosyltransferase; enzyme activity, inhibitor; pH 7.4): 107 nM

N=C(N)NCCCc1c[nH]cn1
Ki (Histamine H3 receptor (HRH3, Homo sapiens, UniProt Q9Y5N1); ligand displacement, radioligand; cell membranes): 38 nM

CC(C)C[C@H](NC(=O)[C@H](CCCCN)NC(=O)[C@H](CCCCN)NC(=O)[C@H](C)NC(=O)[C@H](CCCCN)NC(=O)[C@H](CCCCN)NC(=O)[C@@H]1CCCN1C(=O)[C@H](C)NC(=O)[C@H](CCCCN)NC(=O)[C@@H]1CCCN1)C(=O)O
Ki (Cyclin-dependent kinase 5, with p25 (CDK5, Homo sapiens, UniProt Q00535); inhibitor; 0.2 mM Mg2+, with: peptide substrate varied): 200000 ± 100000 nM

O=C(Nc1cccc(-c2nn[nH]n2)c1)c1cc(-c2cccnc2)cc(C(F)(F)F)c1
Ki (Beta-lactamase CTX-M-14; enzyme activity, inhibitor, absorbance; pH 7): 29300 nM

Cc1ccccc1-c1cc(N2CCN(C)CC2)ccc1N(C)C(=O)C(C)(C)c1cc(C(F)(F)F)cc(C(F)(F)F)c1
Ki (TACR1; binding): 2.57 nM

Nc1nc2c(ncn2[C@@H]2O[C@H](COP(=O)(O)OP(=O)(O)O[C@H]3O[C@@H](CNC(=O)CCc4ccccc4)[C@@H](O)[C@@H](O)[C@@H]3F)[C@@H](O)[C@H]2O)c(=O)[nH]1
Ki (FUT6; enzyme activity, inhibitor): 3700 nM

C[C@H](CCC(=O)NCC(=O)O)[C@H]1CC[C@H]2[C@@H]3C(=O)C[C@H]4C[C@H](O)CC[C@]4(C)[C@H]3CC[C@]12C
Ki (Hepatic sodium/bile acid cotransporter (SLC10A1, Homo sapiens, UniProt Q14973); transporter uptake, inhibitor, radiometric): 4210 nM

C=C1CC2(C(=O)OC)C=C(C(=O)OC(C)(C)C)C(=O)C1C2 (stereo not drawn)
Ki (MAPK8; ligand displacement, FP): 1000 nM

Cc1ccccc1-c1cc(N2CCN(C(=O)[C@@H](N)CCCNC(=N)N)CC2)ccc1N(C)C(=O)C(C)(C)c1cc(C(F)(F)F)cc(C(F)(F)F)c1
Ki (TACR1; cell-free assay, BRET; pH 6): 25.7 nM

O=C(OC1CCN(CCOCCOCCN2CCC(OC(=O)C(c3ccccc3)c3ccccc3)CC2)CC1)C(c1ccccc1)c1ccccc1
Ki (CHRM4; ligand displacement, radioligand): 2340 nM

CCC[C@H](NC(=O)[C@H](COC(=O)c1ccccc1)NC(=O)[C@@H](N)Cc1ccccc1)C(=O)O
Ki (Solute carrier family 15 member 1 (SLC15A1, Homo sapiens, UniProt P46059); [14C]Gly-Sar uptake, inhibitor; Caco-2 cells; with: [14C]Gly-Sar 20 µM): 120000 nM

Cc1cc(OCCCN2CCN(c3cccc4sccc34)CC2)ccc1CN1CCCC1
Ki (Htr1a; cell-free assay, radioligand): 164 nM

C[C@@H]1O[C@H](OP(=O)(O)OP(=O)(O)OC[C@H]2O[C@@H](n3cnc4c(=O)[nH]c(N)nc43)[C@H](O)[C@@H]2O)[C@@H](F)[C@H](O)[C@@H]1O
Ki (FUT6; enzyme activity, inhibitor): 26300 nM

CCC[C@H](O)[C@H](NC[C@@H](O)[C@H](Cc1ccccc1)NC(=O)c1cc(C)cc(C(=O)N(C)[C@H](C)c2ccccc2)c1)C(=O)NCC(C)C
Ki (Beta-secretase 2 (BACE2, Homo sapiens, UniProt Q9Y5Z0)): 0.038 ± 0.014 nM

Clc1cc(CN2CCCCC2)ccc1OCCCN1CCN(c2cccc3sccc23)CC1
Ki (5-hydroxytryptamine receptor 2A; cell-free assay): 153 nM

CN1CCC=C(c2nsnc2OCCCN2CCN(CCCCC3CCN(CC(=O)N4c5ccccc5NC(=O)c5ccccc54)CC3)CC2)C1
Ki (CHRM4; ligand displacement, radioligand): 2.57 nM

CC[C@H](C)[C@H](NC(C)=O)C(=O)N[C@H](C(=O)N[C@H](C(=O)N[C@@H](CN)C(=O)N[C@H](C=O)CC(=O)O)C(C)C)[C@@H](C)O
Ki (CASP1; enzyme activity, inhibitor, fluorescence; pH 7): 1510 nM

CCCCCCCCCCCCCC[C@@H](O)[C@@H](O)[C@H](CO[C@H]1O[C@H](CO)[C@H](O)[C@H](O)[C@H]1O)NC(=O)CCCCCCCCc1ccccc1
Ki (Cd1d1 (Mus musculus, UniProt P11609); competitive binding on microarray; with: surface-printed ligand): 3100 ± 300 nM

CC[C@H](C)[C@H](NC(=O)[C@H](CCC(N)=O)NC(=O)[C@H](CCC(=O)O)NC(=O)[C@H](CCC(=O)O)NC(=O)[C@H](CCCCN)NC(=O)[C@@H]1CCCN1C(=O)[C@H](CC(C)C)NC(=O)[C@H](CO)NC(=O)[C@H](CO)NC(=O)[C@H](CC(C)C)NC(=O)[C@@H](NC(=O)[C@H](C)NC(=O)[C@H](CO)NC(=O)[C@H](CCCNC(=N)N)NC(=O)CNC(=O)CNC(=O)[C@@H](N)CCCNC(=N)N)C(C)C)C(=O)NCC(N)=O
Ki (Melanocortin receptor 4 (MC4R, Homo sapiens, UniProt P32245); HEK-293T transfected; 2 h, 37 °C, with: Eu-NDP-MSH): > 5000 nM

O=C(Nc1cccc(-c2nn[nH]n2)c1)c1cc(-n2cccn2)cc(C(F)(F)F)c1
Ki (Beta-lactamase CTX-M-14; enzyme activity, inhibitor, absorbance; pH 7): 22500 nM

Cc1ccccc1-c1cc(N2CCCCC2)ccc1N(C)C(=O)C(C)(C)c1cc(C(F)(F)F)cc(C(F)(F)F)c1
Ki (TACR1; binding): 35.5 nM

CNC1CCC(N(Cc2ccc(OC)c(-c3ccc(C#N)cc3)c2)C(=O)c2sc3ccccc3c2Cl)CC1 (stereo not drawn)
Ki (Protein smoothened (Smo, Mus musculus, UniProt P56726); ligand displacement, radioligand; cell membranes): 22 nM

N=C(N)NCCC[C@H](NC(=O)[C@@H](N)Cc1ccccc1)C(=O)NCCOCCOCC(=O)NCC(=O)N1CCCC1
Ki (FAP; enzyme activity, inhibitor, fluorescence; pH 7.5): 67700 nM

CC(C)(C)OC(=O)C1=C[C@@](C)(C(=O)OCC#Cc2ccncc2)CCC1=O
Ki (MAPK8; ligand displacement, FP): 2700 nM

Clc1cc(OCCCN2CCN(c3cccc4sccc34)CC2)ccc1CN1CCCCC1
Ki (Htr1a; cell-free assay, radioligand): 200 nM

Nc1nc2c(ncn2[C@@H]2O[C@H](COP(=O)(O)OP(=O)(O)O[C@H]3O[C@@H](CNC(=O)c4ccc(-c5ccccc5)cc4)[C@@H](O)[C@@H](O)[C@@H]3F)[C@@H](O)[C@H]2O)c(=O)[nH]1
Ki (4-galactosyl-N-acetylglucosaminide 3-alpha-L-fucosyltransferase 9 (FUT9, Homo sapiens, UniProt Q9Y231); enzyme activity, inhibitor): 630000 nM

O=c1[nH]cnc2c(CNCC(O)CP(=O)(O)O)c[nH]c12 (stereo not drawn)
Ki (Hypoxanthine-guanine-xanthine phosphoribosyltransferase; enzyme activity, inhibitor; pH 7.4): 9.1 nM

CNc1ccccc1C(=O)O[C@H]1[C@@H](O)[C@H](n2ccc(=O)[nH]c2=O)O[C@@H]1COP(=O)(O)OP(=O)(O)O
Ki (Adcy2/ADCY5, C1/C2 domains (Rattus norvegicus, UniProt P26769+P30803); enzyme activity, inhibitor; with: 10 mM MnCl2, 100 µM forskolin, Gsα-GTPγS): 170 ± 27 nM

Clc1cc(CN2CCCC2)ccc1OCCCN1CCN(c2cccc3sccc23)CC1
Ki (5-hydroxytryptamine receptor 2A; cell-free assay): 249 nM

CN(C)CCNC(=O)c1cccc2c(NCCCCc3c(N)nc(N)nc3N)c3ccccc3nc12
Ki (Muscleblind-like protein 1, with (CCUG)6 RNA (Homo sapiens, UniProt Q9NR56); MBNL1-RNA binding, gel mobility shift; no tRNA, with: (CCUG)6 RNA, 350 nM MBNL1): 2200 ± 300 nM

CN1CCN(Cc2ccc(OCCCN3CCN(c4cccc5sccc45)CC3)cc2)CC1
Ki (Htr1a; cell-free assay, radioligand): 109 nM

COc1cc(/C=C/c2cc(O)cc(O)c2)ccc1O
Ki (Xanthine dehydrogenase/oxidase (XDH, Bos taurus, UniProt P80457); superoxide generation, inhibitor; pH 10.0, 25 °C, with: xanthine): 36000 ± 3000 nM

CCC(=O)NC1CN(CCCCC2CCN(CC(=O)N3c4ccccc4NC(=O)c4ccccc43)CC2)CCN(CC(=O)N2CCC(N3CCC(n4c(=O)[nH]c5ccccc54)CC3)CC2)C1 (stereo not drawn)
Ki (CHRM4; ligand displacement, radioligand): 7.94 nM

O=C(Nc1cccc(-c2nn[nH]n2)c1)c1cc(-n2cnnn2)cc(C(F)(F)F)c1
Ki (Beta-lactamase CTX-M-14; enzyme activity, inhibitor, absorbance; pH 7): 29700 nM

COc1cc(CN2CCCC2)ccc1OCCN1CCN(c2cccc3sccc23)CC1
Ki (Htr1a; cell-free assay, radioligand): 355 nM

O=C(Nc1cccc(-c2nn[nH]n2)c1)c1cc(-c2ncccn2)cc(C(F)(F)F)c1
Ki (Beta-lactamase CTX-M-14; enzyme activity, inhibitor, absorbance; pH 7): 15300 nM

CC[C@H](C)[C@H](NC(C)=O)C(=O)N[C@H](C(=O)N[C@H](C(=O)N[C@@H](CCCCN)C(=O)N[C@H](C=O)CC(=O)O)C(C)C)[C@@H](C)O
Ki (CASP1; enzyme activity, inhibitor, fluorescence; pH 7): 447 nM
